Assay results pooled from the literature.
Every numbered part comes from another study and shows a few of its results, in no order. Positions count from the first letter of the parent shown.

Set 1 — target: CCNF, cyclin fold, Cln2 fusion (human); technique: yeast growth competition, sequencing; matrix: yeast; notes: strong parent motif; reference: not given; direction: higher = stronger binding; starting sequence: viral docking peptide; KGVKRKLFAEDSS
Substitution	normalised enrichment score
S12M	7.91
E10S	7.42
A9D	7.34
L7Q	0.271
L7W	0.134
F8M	2.1
G2P	8.24
E10G	7.72
K4E	4.45
L7S	0.497
K4F	6.67
D11K	7.64
S12D	7.74
V3M	2.72
V3Y	5.22
E10W	7.58
K6A	7.36

Set 2 — technique: protein-binding microarray; molecule type: double-stranded DNA, one strand shown; matrix: in vitro; tested at: 2200 nM top; notes: 60-bp whole probe; added: salmon DNA 0.4 mg/ml; reference: random background probes; direction: higher = stronger binding; all sequences stand within: GCCTAGCAC … GTCTTGATTCGCTTGACGCTGCTG
Target: Interferon regulatory factor 7, full length, phosphomimetic (IRF7, Homo sapiens, UniProt Q92985, residues 1-503, S471D/S472D/S475D/S476D/S477D/S483D/S484D/S487D)
Target sequence (chain): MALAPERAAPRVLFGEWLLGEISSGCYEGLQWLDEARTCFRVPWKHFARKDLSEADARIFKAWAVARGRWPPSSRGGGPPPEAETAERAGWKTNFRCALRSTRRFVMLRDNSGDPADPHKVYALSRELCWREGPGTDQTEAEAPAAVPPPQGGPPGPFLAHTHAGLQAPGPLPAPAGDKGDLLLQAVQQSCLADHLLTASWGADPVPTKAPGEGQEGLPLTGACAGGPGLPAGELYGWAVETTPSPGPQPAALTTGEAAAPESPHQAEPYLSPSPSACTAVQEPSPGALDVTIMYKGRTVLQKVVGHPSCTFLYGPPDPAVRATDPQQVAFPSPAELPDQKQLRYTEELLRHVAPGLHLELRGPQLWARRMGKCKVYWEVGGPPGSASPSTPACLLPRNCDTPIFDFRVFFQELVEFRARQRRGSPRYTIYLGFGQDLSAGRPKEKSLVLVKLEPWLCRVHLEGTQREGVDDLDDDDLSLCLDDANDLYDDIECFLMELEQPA
Oligonucleotide	fitted relative affinity [z-score]
GACGATTTAAGTTTCGAGACGTGCTAG	2.91
TCATCATTTTCTCTGTTACTGTGCTAG	2.37
TTAGGTATCGATATCGGTTAGTGCTAG	0.801
TTAGTACTGGGGTATCGGTTAGTGCTA	0.198
GACGATTTCGGGTCTCGAGACGTGCTA	4.04
AATTTTTTGTATTTTTAGTGGTGCTAG	0.446
TCATTTCTTTCAAATGAAACTGTGCTA	0.954
GACGATCTCAGACCGGAGACGTGCTAG	-0.245

Set 3 — technique: RNAcompete; molecule type: RNA; matrix: in vitro; tested at: 20 nM; notes: 7-mer, probes averaged, single round; reference: mean of 7-mers; direction: higher = stronger binding
Target: PABPC1L2, full length, GST fusion (mouse, UniProt A0ABA7IW68)
Residues (chain): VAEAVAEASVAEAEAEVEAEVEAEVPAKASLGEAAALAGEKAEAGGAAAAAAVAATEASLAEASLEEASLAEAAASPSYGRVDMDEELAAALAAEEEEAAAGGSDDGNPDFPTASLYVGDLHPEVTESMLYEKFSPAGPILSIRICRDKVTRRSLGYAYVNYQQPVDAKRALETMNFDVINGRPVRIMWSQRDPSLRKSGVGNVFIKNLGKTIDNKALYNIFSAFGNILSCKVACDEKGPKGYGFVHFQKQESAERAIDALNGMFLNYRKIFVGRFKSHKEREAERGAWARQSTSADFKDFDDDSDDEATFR
Oligonucleotide	7-mer Z-score
GGAUACC	-0.0609
CCCGCUU	-0.407
UCCUGGG	-0.117
AGUAAGG	0.104
CUCCUGA	-0.258
AUAGUUG	-0.132
GGGCCAU	0.215
AGGCGCA	0.169

Further values, each from its own experiment
Starting sequence: PafA, mature enzyme, eGFP fusion (Elizabethkingia meningoseptica, UniProt Q9KJX5); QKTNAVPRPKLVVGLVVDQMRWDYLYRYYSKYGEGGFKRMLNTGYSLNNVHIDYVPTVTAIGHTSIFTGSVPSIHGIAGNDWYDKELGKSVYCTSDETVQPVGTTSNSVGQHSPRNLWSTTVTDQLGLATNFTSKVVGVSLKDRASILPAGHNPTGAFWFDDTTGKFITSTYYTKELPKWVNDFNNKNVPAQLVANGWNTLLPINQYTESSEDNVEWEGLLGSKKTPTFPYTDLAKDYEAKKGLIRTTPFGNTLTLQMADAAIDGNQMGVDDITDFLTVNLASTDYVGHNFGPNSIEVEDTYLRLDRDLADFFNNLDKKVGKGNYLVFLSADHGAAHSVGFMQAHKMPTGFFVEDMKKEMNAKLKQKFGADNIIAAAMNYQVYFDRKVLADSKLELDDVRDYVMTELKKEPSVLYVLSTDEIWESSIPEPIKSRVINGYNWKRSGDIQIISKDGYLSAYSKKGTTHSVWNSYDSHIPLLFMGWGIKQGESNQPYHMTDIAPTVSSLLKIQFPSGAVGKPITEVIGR
Substitution	target	test	system	setting	how to read	endpoint	result
Y472V	tungstate, free oxyanion	microfluidic competitive inhibition	in vitro, cell-free expressed	not given, derived from inhibition constants, unchanged parent 2230 nM	lower = stronger binding	oxyanion analog dissociation constant	2670 nM
